Results of several laboratories.
“And” joins repeats or separate records; there may be more than shown. Numbers after ± are the reported error.
GBA2: Beta-glucosidase (GBA2, Homo sapiens, UniProt Q9HCG7)
Chain of UniProt Q9HCG7 (whole entry, looked up): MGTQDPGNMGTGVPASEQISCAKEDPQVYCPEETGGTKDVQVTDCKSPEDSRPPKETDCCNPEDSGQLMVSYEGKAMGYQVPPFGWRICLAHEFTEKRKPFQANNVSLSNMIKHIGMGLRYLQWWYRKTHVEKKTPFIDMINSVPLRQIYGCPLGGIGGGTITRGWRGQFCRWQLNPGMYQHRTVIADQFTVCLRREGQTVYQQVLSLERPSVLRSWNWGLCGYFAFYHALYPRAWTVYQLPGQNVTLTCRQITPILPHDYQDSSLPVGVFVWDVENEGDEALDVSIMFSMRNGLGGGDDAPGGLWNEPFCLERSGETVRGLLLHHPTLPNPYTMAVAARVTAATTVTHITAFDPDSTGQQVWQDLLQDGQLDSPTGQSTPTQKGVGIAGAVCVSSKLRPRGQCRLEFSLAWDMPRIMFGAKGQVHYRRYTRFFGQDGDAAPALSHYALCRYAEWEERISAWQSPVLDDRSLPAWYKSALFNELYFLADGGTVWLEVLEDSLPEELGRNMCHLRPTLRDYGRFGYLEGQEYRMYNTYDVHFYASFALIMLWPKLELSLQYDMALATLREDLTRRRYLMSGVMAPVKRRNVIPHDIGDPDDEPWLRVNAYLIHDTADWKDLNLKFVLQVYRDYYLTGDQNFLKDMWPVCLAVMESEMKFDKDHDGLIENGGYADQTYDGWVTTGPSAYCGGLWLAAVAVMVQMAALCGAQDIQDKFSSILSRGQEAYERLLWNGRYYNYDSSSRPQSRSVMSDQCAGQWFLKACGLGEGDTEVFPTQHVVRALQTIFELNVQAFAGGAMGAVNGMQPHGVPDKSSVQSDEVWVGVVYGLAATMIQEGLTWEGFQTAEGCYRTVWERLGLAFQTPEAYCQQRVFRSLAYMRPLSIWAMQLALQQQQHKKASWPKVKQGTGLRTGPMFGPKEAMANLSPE
B4GALT1: Beta-1,4-galactosyltransferase 1 (B4GALT1, Homo sapiens, UniProt P15291)
Chain of UniProt P15291 (whole entry, looked up): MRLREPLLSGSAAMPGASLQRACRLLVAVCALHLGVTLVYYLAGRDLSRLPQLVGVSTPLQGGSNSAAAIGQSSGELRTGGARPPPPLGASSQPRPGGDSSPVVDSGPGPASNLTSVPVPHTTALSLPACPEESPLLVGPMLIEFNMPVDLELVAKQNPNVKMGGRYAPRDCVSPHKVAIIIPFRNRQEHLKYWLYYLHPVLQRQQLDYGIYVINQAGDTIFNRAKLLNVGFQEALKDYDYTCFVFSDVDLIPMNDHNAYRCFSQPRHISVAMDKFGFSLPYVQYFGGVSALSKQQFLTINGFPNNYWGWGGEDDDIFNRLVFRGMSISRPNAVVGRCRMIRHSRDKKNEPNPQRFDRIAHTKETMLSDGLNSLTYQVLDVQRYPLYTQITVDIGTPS
JAK2: Tyrosine-protein kinase JAK2 (JAK2, Homo sapiens, UniProt O60674)
Chain of UniProt O60674 (whole entry, looked up): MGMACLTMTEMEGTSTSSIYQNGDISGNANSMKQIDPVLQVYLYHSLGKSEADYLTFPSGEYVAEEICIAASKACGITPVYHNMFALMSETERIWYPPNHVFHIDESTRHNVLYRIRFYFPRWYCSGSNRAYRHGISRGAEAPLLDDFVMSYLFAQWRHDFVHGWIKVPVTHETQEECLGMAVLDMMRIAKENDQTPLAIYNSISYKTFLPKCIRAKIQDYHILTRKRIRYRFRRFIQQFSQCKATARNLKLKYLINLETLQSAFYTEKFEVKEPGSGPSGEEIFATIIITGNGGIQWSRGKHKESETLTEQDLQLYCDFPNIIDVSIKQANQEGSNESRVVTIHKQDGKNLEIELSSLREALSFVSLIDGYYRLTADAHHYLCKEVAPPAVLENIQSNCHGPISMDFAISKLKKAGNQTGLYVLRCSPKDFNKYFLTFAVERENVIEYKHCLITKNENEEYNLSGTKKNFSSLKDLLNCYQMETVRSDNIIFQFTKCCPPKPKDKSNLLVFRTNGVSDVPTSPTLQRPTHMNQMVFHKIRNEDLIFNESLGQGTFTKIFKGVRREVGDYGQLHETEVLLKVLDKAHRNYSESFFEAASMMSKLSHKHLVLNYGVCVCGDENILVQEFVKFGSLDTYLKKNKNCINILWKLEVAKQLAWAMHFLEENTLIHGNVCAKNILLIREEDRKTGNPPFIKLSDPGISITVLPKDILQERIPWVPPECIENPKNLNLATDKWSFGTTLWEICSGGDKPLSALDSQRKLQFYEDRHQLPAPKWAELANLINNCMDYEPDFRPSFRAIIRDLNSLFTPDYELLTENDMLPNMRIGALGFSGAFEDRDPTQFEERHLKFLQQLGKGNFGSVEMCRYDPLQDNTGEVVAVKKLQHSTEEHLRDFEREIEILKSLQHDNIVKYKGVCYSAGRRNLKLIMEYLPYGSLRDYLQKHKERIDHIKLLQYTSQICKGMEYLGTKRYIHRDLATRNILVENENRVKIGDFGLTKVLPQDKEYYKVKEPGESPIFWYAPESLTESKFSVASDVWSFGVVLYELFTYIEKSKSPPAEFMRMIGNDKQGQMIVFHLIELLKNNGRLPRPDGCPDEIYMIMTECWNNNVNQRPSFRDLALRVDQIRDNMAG
CASP3: Caspase-3 (CASP3, Homo sapiens, UniProt P42574)
Chain of UniProt P42574 (whole entry, looked up): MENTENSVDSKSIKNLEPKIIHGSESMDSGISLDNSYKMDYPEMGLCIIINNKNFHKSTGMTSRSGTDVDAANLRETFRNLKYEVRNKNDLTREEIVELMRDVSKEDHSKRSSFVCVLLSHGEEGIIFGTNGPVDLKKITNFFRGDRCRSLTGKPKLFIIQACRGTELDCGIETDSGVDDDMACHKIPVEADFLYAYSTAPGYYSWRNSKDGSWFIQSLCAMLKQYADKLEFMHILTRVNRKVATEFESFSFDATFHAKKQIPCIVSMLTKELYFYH
T1: hairpin RNA, fully paired; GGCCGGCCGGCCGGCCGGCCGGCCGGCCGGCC
T2: preQ1-I riboswitch RNA, compensatory mutant; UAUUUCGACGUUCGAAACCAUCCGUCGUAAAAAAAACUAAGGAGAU
Chain of UniProt Q8TDU9 (whole entry, unmodified, looked up): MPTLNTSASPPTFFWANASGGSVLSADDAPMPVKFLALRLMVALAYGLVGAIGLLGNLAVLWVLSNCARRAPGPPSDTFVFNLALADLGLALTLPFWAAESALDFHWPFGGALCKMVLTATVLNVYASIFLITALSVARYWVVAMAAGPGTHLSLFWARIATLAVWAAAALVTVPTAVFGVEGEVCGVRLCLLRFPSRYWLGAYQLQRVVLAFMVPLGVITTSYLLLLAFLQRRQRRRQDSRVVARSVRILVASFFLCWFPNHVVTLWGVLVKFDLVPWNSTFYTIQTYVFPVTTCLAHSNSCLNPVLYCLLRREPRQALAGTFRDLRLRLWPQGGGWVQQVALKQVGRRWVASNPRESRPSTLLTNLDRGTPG
Chain of UniProt P46089 (whole entry, unmodified, looked up): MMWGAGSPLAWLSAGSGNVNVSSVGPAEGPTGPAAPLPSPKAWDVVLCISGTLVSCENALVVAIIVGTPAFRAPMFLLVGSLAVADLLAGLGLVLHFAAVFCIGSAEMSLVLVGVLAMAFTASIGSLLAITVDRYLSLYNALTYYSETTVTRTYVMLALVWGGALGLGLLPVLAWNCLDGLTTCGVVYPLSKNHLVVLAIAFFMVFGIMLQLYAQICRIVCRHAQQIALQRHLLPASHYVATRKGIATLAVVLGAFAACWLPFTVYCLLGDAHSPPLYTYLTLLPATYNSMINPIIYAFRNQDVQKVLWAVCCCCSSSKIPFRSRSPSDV
Chain of UniProt Q13148 (whole entry, looked up): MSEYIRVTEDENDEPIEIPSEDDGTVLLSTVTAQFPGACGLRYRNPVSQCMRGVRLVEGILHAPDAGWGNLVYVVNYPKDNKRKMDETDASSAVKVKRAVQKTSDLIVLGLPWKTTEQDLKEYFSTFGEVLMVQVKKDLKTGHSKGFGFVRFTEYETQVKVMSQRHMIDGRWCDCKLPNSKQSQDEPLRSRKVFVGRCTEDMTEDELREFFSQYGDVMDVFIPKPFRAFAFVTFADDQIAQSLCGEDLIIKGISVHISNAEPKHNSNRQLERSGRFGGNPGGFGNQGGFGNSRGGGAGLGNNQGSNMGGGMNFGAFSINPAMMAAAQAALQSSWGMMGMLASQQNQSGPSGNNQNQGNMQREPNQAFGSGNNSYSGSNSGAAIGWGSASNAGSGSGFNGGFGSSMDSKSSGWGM
Chain of UniProt Q9BY41 (whole entry, unmodified, looked up): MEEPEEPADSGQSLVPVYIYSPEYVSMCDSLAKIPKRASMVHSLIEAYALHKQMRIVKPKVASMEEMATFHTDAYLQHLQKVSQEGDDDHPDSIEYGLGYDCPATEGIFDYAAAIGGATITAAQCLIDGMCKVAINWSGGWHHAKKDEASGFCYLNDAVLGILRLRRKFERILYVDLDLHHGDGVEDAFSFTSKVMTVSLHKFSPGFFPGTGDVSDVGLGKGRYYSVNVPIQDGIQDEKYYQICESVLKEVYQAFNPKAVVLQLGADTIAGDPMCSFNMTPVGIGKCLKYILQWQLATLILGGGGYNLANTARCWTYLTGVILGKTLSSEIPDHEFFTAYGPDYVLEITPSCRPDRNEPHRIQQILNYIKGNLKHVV
Chain of UniProt Q99497 (whole entry, looked up): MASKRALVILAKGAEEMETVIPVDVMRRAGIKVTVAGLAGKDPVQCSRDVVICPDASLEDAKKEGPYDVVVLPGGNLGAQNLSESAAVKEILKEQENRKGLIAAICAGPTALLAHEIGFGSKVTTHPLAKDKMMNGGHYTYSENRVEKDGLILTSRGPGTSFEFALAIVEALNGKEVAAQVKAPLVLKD
Chain of UniProt Q15208 (whole entry, looked up): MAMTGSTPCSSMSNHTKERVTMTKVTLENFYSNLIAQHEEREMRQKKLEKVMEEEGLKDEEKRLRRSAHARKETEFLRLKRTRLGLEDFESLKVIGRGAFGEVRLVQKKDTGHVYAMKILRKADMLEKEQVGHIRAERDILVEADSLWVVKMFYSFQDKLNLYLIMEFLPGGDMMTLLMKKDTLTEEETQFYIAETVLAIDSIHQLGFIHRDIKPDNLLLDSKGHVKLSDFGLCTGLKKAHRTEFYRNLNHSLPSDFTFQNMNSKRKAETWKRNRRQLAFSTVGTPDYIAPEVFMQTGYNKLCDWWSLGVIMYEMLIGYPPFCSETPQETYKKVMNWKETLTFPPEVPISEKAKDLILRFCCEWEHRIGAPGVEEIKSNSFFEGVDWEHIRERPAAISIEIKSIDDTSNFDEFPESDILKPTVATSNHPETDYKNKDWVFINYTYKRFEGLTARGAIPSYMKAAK

CCCCCNC(=O)C1C(O)C(O)C(O)C(CO)N1CCCC (stereo not shown) — selectivity ratio (GBA2; inhibitor, 4MU-β-D-glucopyranoside; HEK293T homogenates overexpressing GBA2; reference: GBA1 IC50 over GBA2 IC50): 1250
Cc1cc(CC(C)NC(=O)c2cc(=O)[nH]c3ccc(F)cc23)[nH]n1 (stereo not shown) — luminescence (B4GALT1; enzyme activity, inhibitor, UDP-Glo; 10 µM; lower means stronger inhibition): 72000 a.u.
C#CCOc1ccc(C(=O)C(O)O)cc1 — binding (T1, hairpin RNA, fully paired; click labelling gel fluorescence; covalent): no binding
COc1cc(Nc2nccc(-c3cnn4nc(OC)ccc34)n2)cc(C(F)(F)F)c1 — remaining binding (RET (Homo sapiens, UniProt P07949); binding, competition with immobilised ligand; 1 µM): 73%
CCCCCCCCCCCCCCCC(=O)NCCCC[C@H](NC(=O)[C@H](CCC(=O)O)NC(=O)[C@H](Cc1ccc(O)cc1)NC(=O)[C@H](CCC(=O)O)NC(=O)COCC(=O)NCCCOCCOCCOCCCNC(=O)[C@H](Cc1c[nH]c2ccccc12)NC(=O)[C@H](CCCCN)NC(=O)[C@H](C)NC(=O)[C@H](CCCCNC(=N)N)NC(=O)[C@H](CCC(N)=O)NC(=O)[C@H](Cc1c[nH]cn1)NC(=O)[C@H](CCSC)NC(=O)[C@H](CC(C)C)NC(=O)[C@H](CCC(N)=O)NC(=O)[C@@H](NC(=O)[C@H](CCC(=O)O)NC(=O)C(C)(C)NC(=O)[C@@H](NC(=O)C(C)(C)N)C(C)C)[C@@H](C)CC)C(=O)N[C@@H](CCC(=O)O)C(=O)N[C@@H](Cc1ccc(O)cc1)C(=O)N[C@@H](CCC(=O)O)C(N)=O — cAMP luminescence AUC (PTH1R (Homo sapiens, UniProt Q03431); agonist; Saos-2 with cAMP reporter; 10 pM, 30 min, ligand-on phase; higher = more cAMP): 2.6 a.u.
OC[C@@H]1[C@@H](O)[C@H](O)[C@@H](O)CN1CCCCCOCc1ccc(-c2ccc3c(c2)OCCO3)cc1 — selectivity ratio (GBA2; inhibitor, 4MU-β-D-glucopyranoside; HEK293T homogenates overexpressing GBA2; reference: GCS IC50 over GBA2 IC50): 1
O=C1c2sc(-c3ccc(N4CCC(CO)CC4)nc3F)nc2CCN1c1cccnc1 — specific binding (TAR DNA-binding protein 43, aggregated (TARDBP, Homo sapiens, UniProt Q13148); radioligand binding; human, FTLD-TDP type B sarkosyl-insoluble extract; 3.53 nM): 0.675 nM and 0.665 nM
Cc1cnc(Nc2ccc3c(c2)CCN(C(=O)/C=C/C(=O)C2CCC(C)CC2)C3)nc1-c1cnn(C(C)C)c1 (stereo not shown) — selectivity ratio (JAK2; ADP-Glo; reference: IC50 JAK3 over IC50 JAK2): > 14.6
CC(C)Oc1cc(Cl)ccc1CNc1cc(-c2ccccc2)nc2ncnn12 — cAMP luminescence (GPR3 (Homo sapiens, UniProt P46089, L128A); cAMP level, cAMP GloSensor; 10 pM; higher = more cAMP): 17000 a.u. and 32200 a.u. and 17200 a.u. and 30000 a.u.
OC[C@@H]1[C@@H](O)[C@H](O)[C@@H](O)CN1CCCCCOCc1ccc(-c2ccc(C(F)(F)F)cc2)cc1 — selectivity ratio (GBA2; inhibitor, 4MU-β-D-glucopyranoside; HEK293T homogenates overexpressing GBA2; reference: GCS IC50 over GBA2 IC50): 25
CC(=O)N[C@@H](CC(=O)O)C(=O)N[C@@H](Cc1ccc(I)cc1)C(=O)N[C@@H](C)C(=O)N[C@@H](CC(=O)O)C(=O)COC(=O)c1c(C)cccc1C — kinact/KI (CASP3; enzyme activity, inhibitor): 1.44e+06 M⁻¹ s⁻¹
Cc1ccc(C(=O)Nc2ccc(CN3CCN(C)CC3)c(C(F)(F)F)c2)cc1C#Cc1cnc2cccnn12 — Hill slope (STK38 (Homo sapiens, UniProt Q15208); target engagement, NanoBRET; human cells): 0.762
Cc1cc(C)c2c(Cn3ccnc3)cc(=O)oc2c1 — inhibition of binding (ADRA1B (Homo sapiens, UniProt P35368); flow cytometry binding; COS-7; 500 µM, tracer 6.25 nM): 10.6 ± 0.85%
Nc1nc(SCc2ccccc2)nn1S(=O)(=O)c1ccc(F)cc1 — probe labeling increase (LYPLAL1 (Homo sapiens, UniProt Q5VWZ2); enzyme activity, activator, gel-based ABPP; purified protein; concentration not given, with: FP-rhodamine; reference: DMSO): 1.2 fold
N#CN1CC[C@H](C(=O)Nc2nc3c(s2)CN(C(=O)CN=[N+]=[N-])CC3)C1 — total spectral count (PARK7 (Homo sapiens, UniProt Q99497); click pull-down LC-MS/MS; HEK293T cells): 4
Cn1c(=O)n(C2CCC(=O)NC2=O)c2ccc(C3CCN(CC(=O)Nc4cccc(CS(=O)(=O)N5CC[C@H](Nc6cccc(-c7sc(C(=O)O)c(OCC(=O)O)c7Cl)c6)CC5(C)C)c4)CC3)cc21 (stereo partly shown) — BLI binding response (PTPN2 (Homo sapiens, UniProt P17706, E41K/R35E/R43E); degrader, bio-layer interferometry; 62.5 nM; higher = more binding): 0.346 a.u.
NCc1c[nH]c2nc(N)[nH]c(=O)c12 — Kd (T2, preQ1-I riboswitch RNA, compensatory mutant; in-line probing; 35-45 h): 320 nM
Cc1cnc2nc1Nc1cccc(c1)COCc1cc(ccc1OCCN1CCOCC1)N2 — inhibition (JAK2; inhibitor, Z'-LYTE kinase; 333.3 nM): 89.6% and 87.5% and 89.5%
CC(=O)N[C@@H](Cc1c[nH]c2ccccc12)C(=O)N[C@@H](CCC(=O)O)C(=O)N[C@@H](Cc1c[nH]cn1)C(=O)N[C@@H](CC(=O)O)C(=O)COC(=O)c1c(C)cccc1C — kinact/KI (CASP3; enzyme activity, inhibitor): 50200 M⁻¹ s⁻¹
CC(C)[C@H](NC(=O)N1CC(=O)Nc2ccccc21)C(=O)O — luminescence (B4GALT1; enzyme activity, inhibitor, UDP-Glo; 10 µM; lower means stronger inhibition): 50900 a.u.
OC[C@@H]1[C@@H](O)[C@H](O)[C@@H](O)CN1CCCCCOCc1ccc(-c2ccncc2)cc1 — selectivity ratio (GBA2; inhibitor, 4MU-β-D-glucopyranoside; HEK293T homogenates overexpressing GBA2; reference: GCS IC50 over GBA2 IC50): 200
CN(Cc1cc(C2CC2)on1)C(=O)c1cccc(-c2ccc3c(c2)CCO3)c1 — reaction rate (Acetyl-CoA synthetase (Cryptococcus neoformans, UniProt J9VFT1); enzyme activity, inhibitor, coupled pyrophosphate; 125 µM; higher is more activity): 0.000125 a.u.
OC[C@@H]1[C@@H](O)[C@H](O)[C@@H](O)CN1CCCCCOCc1ccc(-c2ccccc2)cc1C(F)(F)F — selectivity ratio (GBA2; inhibitor, 4MU-β-D-glucopyranoside; HEK293T homogenates overexpressing GBA2; reference: GCS IC50 over GBA2 IC50): 208
CC(/C=C/C(=O)NO)=C\[C@@H](C)C(=O)c1ccc(N(C)C)cc1 — TΔS (HDAC8 (Homo sapiens, UniProt Q9BY41); ITC; triethanolamine buffer; pH 7.5): 1.6 kcal/mol
OC[C@H]1N[C@H](CCCCOCC23CC4CC(CC(C4)C2)C3)[C@H](O)[C@@H](O)[C@@H]1O — selectivity ratio (GBA2; inhibitor, 4MU-β-D-glucopyranoside; HEK293T homogenates overexpressing GBA2; reference: GBA1 IC50 over GBA2 IC50): 5
CC[C@H](C)[C@@H]1NC(=O)[C@H](Cc2ccccc2)NC(=O)[C@H](CCC(=O)O)NC(=O)[C@H](CCCNC(=N)N)NC(=O)CNC(=O)[C@@H](NC(=O)[C@H](CC(C)C)NC(=O)[C@H](CCCNC(=N)N)NC(=O)[C@@H](NC(=O)CNC(=O)[C@H](Cc2ccc(O)cc2)NC(=O)[C@@H]2CCCN2C(=O)[C@H](C)NC(=O)[C@H](C)NC(=O)[C@@H](N)CCCNC(=N)N)C(C)C)CSSC[C@@H]2NC(=O)[C@@H](NC(=O)[C@H](CO)NC(=O)[C@H](CO)NC(=O)[C@H](CO)NC(=O)[C@H](CC(C)C)NC(=O)CNC(=O)[C@H](C)NC(=O)[C@H](CC(C)C)NC(=O)[C@@H](NC(=O)[C@@H](N)CC(=O)O)C(C)C)CSSC[C@H](NC(=O)CNC(=O)[C@H](Cc3c[nH]c4ccccc34)NC(=O)[C@H](CCCCN)NC2=O)C(=O)N[C@@H](CO)C(=O)N[C@@H](CCCCN)C(=O)N[C@@H](CO)C(=O)N[C@@H](CCC(=O)O)C(=O)N[C@@H]([C@@H](C)CC)C(=O)N[C@@H](CO)C(=O)N[C@@H](CO)C(=O)N[C@@H](CC(C)C)C(=O)N[C@H](C(=O)O)CSSC[C@@H](C(=O)NCC(=O)NCC(=O)N[C@@H](CO)C(=O)N[C@@H](CCCNC(=N)N)C(=O)N[C@@H](Cc2c[nH]c3ccccc23)C(=O)O)NC(=O)[C@H]([C@@H](C)O)NC(=O)[C@H](Cc2ccccc2)NC(=O)[C@H]([C@@H](C)CC)NC(=O)[C@H](C(C)C)NC(=O)[C@H](C)NC(=O)[C@H](CCCNC(=N)N)NC1=O — change in Emax (RXFP4 (Homo sapiens, UniProt Q8TDU9, H299A); H299A mutant; reference: wild type): -25.4% and -5.8% and -10.4%
OC[C@@H]1[C@@H](O)[C@H](O)[C@@H](O)CN1CCCCCCC12CC3CC(CC(C3)C1)C2 — selectivity ratio (GBA2; inhibitor, 4MU-β-D-glucopyranoside; HEK293T homogenates overexpressing GBA2; reference: GCS IC50 over GBA2 IC50): 4000
CC(=O)N[C@@H](Cc1ccc(O)cc1)C(=O)N1CSC[C@H]1C(=O)N[C@@H](C)C(=O)N[C@@H](CC(=O)O)C(=O)COC(=O)c1c(C)cccc1C — kinact/KI (CASP3; enzyme activity, inhibitor): 9500 M⁻¹ s⁻¹

Some of these lines once more:
OC[C@@H]1[C@@H](O)[C@H](O)[C@@H](O)CN1CCCCCCC12CC3CC(CC(C3)C1)C2 — selectivity ratio (GBA2; inhibitor, 4MU-β-D-glucopyranoside; HEK293T homogenates overexpressing GBA2; reference: GCS IC50 over GBA2 IC50): 4000
CC(=O)N[C@@H](Cc1ccc(O)cc1)C(=O)N1CSC[C@H]1C(=O)N[C@@H](C)C(=O)N[C@@H](CC(=O)O)C(=O)COC(=O)c1c(C)cccc1C — kinact/KI (CASP3; enzyme activity, inhibitor): 9500 M⁻¹ s⁻¹
